Assay results pooled from the literature.
Several values in a cell are separate wells, animals, samples, runs or records.
Target: Proto-oncogene tyrosine-protein kinase Src (SRC, Homo sapiens, UniProt P12931)

For `C=C1CCCCCCCCCC(CO)C1=O` (stereo not drawn), the remaining binding was 100% (cell-free assay, competition with immobilised ligand; 10 µM).
For `CN1CCN(Cc2ccc(-c3ccc(CO[C@H]4CCC[C@@H]4NC(=O)c4cc(-c5cnn(C)c5)cnc4N)cc3)cc2)CC1`, the inhibition was 13% (enzyme activity, inhibitor; 0.1 µM).
For `C=CC(=O)Nc1cc(-c2nn(C3CCN(CCNC(=O)[C@H](C)CCC45CC6CC(CC(C6)C4)C5)CC3)c3ncnc(N)c23)ccc1Oc1ccccc1`, the inhibition was 70.8% (inhibitor, KiNativ profiling; biochemical; 2 µM).
`C=CC(=O)N1CCc2ccc(-n3c(=O)ccc4cnc5ccc(-c6cnn(C)c6)cc5c43)cc21` has a remaining binding of 94% (KINOMEscan; 1 µM; baseline: DMSO control).
With `CCn1cc(C(=O)O)c(=O)c2c(N)c(F)c(NC3CCCCC3)cc21` the inhibition was -1.1% (kinase activity; 0.1 µM, together with: ATP at Km).
For `Nc1nc(Nc2ccccc2)sc1C(=O)c1ccccc1`, the remaining activity was 42% (enzyme activity, inhibitor; 10 µM).
`NC(=O)[C@@H](O)C[C@H]1CCc2sc3ncnc(O[C@H]4CC[C@H](N5CCOCC5)CC4)c3c21` gave an inhibition of 64% (enzyme activity, inhibitor; 10 µM).
`COc1cc(-n2cc3cc(F)cc(C(N)=O)c3n2)cc(Cl)c1C1CC(O)(CCO)Cc2ccccc21` (stereo not drawn) gave an inhibition of 0.25% (enzyme activity, inhibitor; 10 µM).
The remaining binding of `CCN1CCN(Cc2ccc(C(=O)Nc3ccc(C)c(NCc4cnc5[nH]ccc5c4OC)c3)cc2C(F)(F)F)CC1` is reported as 0.3% (binding, competition with immobilised ligand; 1 µM).
`COc1cc(Nc2nc(C)cc(-c3cnn4nc(OC)ccc34)n2)cc(C(F)(F)F)c1` has a remaining binding of 100% (binding, competition with immobilised ligand; 1 µM).
The inhibition of `C=CC(=O)Nc1cccc(-c2cnc3[nH]cc(C(=O)NC(C)(C)C)c3n2)c1` is reported as 12% (enzyme activity, inhibitor; 0.1 µM).
The remaining activity of `COCC12C(=O)NC3C4(C(OC)CC1O)C1CC5(O)C(OC)C(O)C(OC(C)=O)(C1C5OC(=O)c1ccccc1)C3(O)C(OC)C24` (stereo not drawn) is reported as 111% and 105% (kinase activity, inhibitor, ProQinase kinase profiling; 25 µM; baseline: control).
For `Cc1cccc(O[C@H]2CCC[C@@H](C(C)CNCc3ccncc3)C2)c1` (relative stereo), the inhibition was -10% (enzyme activity, inhibitor; 10 µM).
`C=CC(=O)N1Cc2nc(-c3cc(-c4cc(Cl)cnc4Cl)c(F)cc3F)n(-c3ccncn3)c2C1` has an inhibition of -4.7% (cell-free assay, inhibitor; 1 µM).
`Cc1ccc(-c2c(/C=C(\C#N)C(=O)NC(C)C)n(CCCO)c3ncnc(N)c23)cc1` gave a remaining binding of 71% (cell-free assay, competition with immobilised ligand; 1 µM).
`Cc1cccc(-c2ccc3nc(NC(=O)C4CCCO4)nn3c2)c1` (stereo not drawn) has a remaining activity of 98% (enzyme activity, Dundee kinase panel; 10 µM).
`CNC1C[S+]2CC[S+]3CC[S+](C1)[Ru-4]321([N]=C=S)[n]2c3ccc(OC)cc3c3c4c(c5cc(F)c[n+]1c5c32)C(=O)NC4=O` (stereo not drawn) has a remaining binding of 98% (KinomeScan; 0.1 µM; baseline: untreated).
`Cc1ccc(C)c(-c2ccc3nc(NC(=O)C4CCCCC4)nn3c2)c1` gave a remaining activity of 89% (enzyme activity, Dundee kinase panel; 10 µM).
The remaining activity of `c1ccc2c(Nc3cc(C4CCC4)[nH]n3)nc(Nc3ccc4nc[nH]c4c3)nc2c1` is reported as 4% (enzyme activity, inhibitor; 0.25 µM).
With `COc1cc(OC)c(F)c(/C=C/c2cnc3ccn(S(=O)(=O)c4cn(CCF)cn4)c3n2)c1F` the inhibition was 1.6% (100 nM).
`CN1CCN(Cc2ccc(NC(=O)c3cccc(C#Cc4cnc(N)c5ncccc45)c3)cc2C(F)(F)F)CC1` has a remaining binding of 5.8% (cell-free assay, competition with immobilised ligand; 50 nM).
`O=C(Nc1ccc(Oc2ncnc3[nH]cc(-c4ccccc4)c23)c(F)c1)c1c2n(n(-c3cc(F)ccc3F)c1=O)CCCC2` has an inhibition of 47% (enzyme activity, inhibitor; 0.5 µM).
The remaining activity of `COc1ccc(NC(=O)Nc2ccc3c(c2)C(=O)N(C(C)CO)CC(C)C(CN(C)Cc2ccc4c(c2)OCO4)O3)cc1` (stereo not drawn) is reported as 97% (kinase activity; 0.03 µM, residues 1-530; baseline: control).
The remaining activity of `COc1c(OCCCN2CCOCC2)ccc2c1N=C(NC(=O)c1cnc(N)nc1)N1CCN=C21` is reported as 125% (kinase activity, inhibitor; 1 µM; baseline: untreated control).
With `CNS(=O)(=O)Nc1nccc(Cc2c(C)c3ccc(Oc4ncccc4F)cc3oc2=O)c1F` the remaining binding was 93% (binding, competition with immobilised ligand; 10 µM).
With `CC(C)=CC1OC(C)(C)C2C=C3C(=O)C(Cl)=CC(O)C3C3C(O)C4OC4C(=O)C132` (stereo not drawn) the remaining binding was 91% (cell-free assay, competition with immobilised ligand; 10 µM).
`Cc1ccc(C(=O)Nc2ccc(CN3CCN(C)CC3)c(C(F)(F)F)c2)cc1C#Cc1cnc2cccnn12` gave a Hill slope of -12.2 (target engagement, NanoBRET; human cells).

Excerpt of the above:
The remaining activity of `COc1c(OCCCN2CCOCC2)ccc2c1N=C(NC(=O)c1cnc(N)nc1)N1CCN=C21` is reported as 125% (kinase activity, inhibitor; 1 µM; baseline: untreated control).
The inhibition of `C=CC(=O)Nc1cccc(-c2cnc3[nH]cc(C(=O)NC(C)(C)C)c3n2)c1` is reported as 12% (enzyme activity, inhibitor; 0.1 µM).
`Cc1ccc(C)c(-c2ccc3nc(NC(=O)C4CCCCC4)nn3c2)c1` gave a remaining activity of 89% (enzyme activity, Dundee kinase panel; 10 µM).
